Measured values collected from several papers.
Each line is one published result; not all experiments were run side by side. Several values in a cell are separate wells, animals, samples, runs or records. Numbers after ± are the reported error.

SMILES | cell line | test | setting | scale | endpoint | result
CC(=O)Nc1ccc(NC(=S)NC(=O)c2ccc(C(C)(C)C)cc2)cc1 | HBL-1 | – | 1 µM, 120 h | – | viability | 70.9%
CCCCc1c(-c2ccc(OC)cc2)[nH]c2nccnc12 | HeLa expressing Ub(G76V)-GFP | Ub(G76V)-GFP degradation, cycloheximide chase | 12 µM | – | inhibition | 26%
CC[S+]([O-])c1nc(-c2ccccc2)cc(C(F)(F)F)n1 (centres unmarked) | HeLa Kyoto | RelA nuclear import, high content imaging | 0.5 µM, 3 h, together with: 1 µM PMA, 60 min | – | cells with nuclear RelA | 66.2% and 79.7%
CCCCc1nc2cc(/C=C/C(=O)NO)ccc2n1CCN(CC)CC | HBL-1 | – | 0.1 µM, 120 h | – | viability | 51.4%
CCn1cc(-c2cc(Cn3ccoc3=N)cc3c2CCN([C@@H](C)c2cc(OC)ccn2)C3=O)c(C(F)(F)F)n1 | ChaGo-K-1 | cell growth, inhibitor | 120 h | – | EC50 | 0.142 µM
CCCc1cc(C)[nH]c(=O)c1CNC(=O)c1cc(-c2ccc(N3CCN(C(C)C)CC3)nc2)cc2c1cnn2C(C)C | HBL-1 | – | 0.5 µM, 120 h | – | viability | 130%
O=C(C[C@@H](C(F)F)n1ccc(F)n1)N1CCC(O)(Cn2cnc3c(cnn3-c3ccc(F)cc3)c2=O)CC1 | CHP-212 resistant cells (pooled) | PI flow cytometry | 1 µM, 24 h | – | cells in G2/M phase | 11.5% and 15.3% and 8.97%
Cn1cc(Nc2nccc(-c3ccc4c(c3)CN(C3COC3)CC[C@H]4NC(=O)c3cn(C(C)(C)C)nn3)n2)cn1 | mouse splenic B cells | item: Apoptosis signalling | 30 mg/kg, IgD-activated in vivo | baseline: vehicle, direction not given | pathway activation z-score | -0.218
Nc1ccn([C@@H]2O[C@H](CO)[C@@H](O)C2(F)F)c(=O)n1 | HBL-1 | – | 0.1 µM, 120 h | – | viability | 5.65%
COc1ccc(-n2nc(C(C)=O)s/c2=N\N=C(/C)c2ccc(NC(=O)c3ccc(C)cc3)cc2)cc1 | MCF7 | – | 1.25 µM | – | toxicity | 95.2%
COc1cc([C@@H]2c3cc4c(cc3[C@@H](O[C@@H]3O[C@@H]5CO[C@@H](c6cccs6)O[C@H]5[C@H](O)[C@H]3O)[C@H]3COC(=O)[C@H]23)OCO4)cc(OC)c1O | BT-12 | cell viability, MTT | 10 µM, 72 h | – | inhibition | 89.3%
Cc1cc(Nc2ncc(Cl)c(Nc3ccccc3S(=O)(=O)C(C)C)n2)c(OC(C)C)cc1C1CCNCC1 | CLB-GE | phosphoproteomics LC-MS/MS, item: KIAA1549 phosphorylation | 200 nM, 60 min | baseline: untreated | log2 fold change | -2.95
COc1cc2c(NC3CCN(C)CC3)nc(N3CCCN(C)CC3)nc2cc1OCCOCCN(C)C | HBL-1 | – | 0.1 µM, 120 h | – | viability | 132%
O=C(C=Cc1cc(C(=O)c2ccc(OC3CCCC3)cc2O)ccc1OCc1ccc2c(O)noc2c1)NCCOCCOCCOCCOCCOCCOCCOCCNc1cccc2c1C(=O)N(C1CCC(=O)NC1=O)C2=O (centres unmarked) | FaDu cancer stem cells | tumorsphere formation | – | – | ED50 | 2.22 µM
C=CC(=O)Nc1cc(Nc2nccc(-c3cn(C)c4ccccc34)n2)c(OC)cc1N(C)CCN(C)C | BT-12 | cell viability, MTT | 10 µM, 72 h | – | inhibition | 93.4%
CCCCc1nc(Cl)c(CO)n1Cc1ccc(-c2ccccc2-c2nn[nH]n2)cc1 | human PBMC | RNA-seq, item: CD302 mRNA | 10 µg/mL, 24 h | baseline: untreated control | log2 fold change | -1.52
C#Cc1cccc(Nc2ncnc3cc(OC)c(OCCCCCCC(=O)NO)cc23)c1 | HBL-1 | – | 0.5 µM, 120 h | – | viability | 57.9%
Cn1cc(-c2ccc(-c3cncc(Cl)c3N3CCC4(CCNC4=O)CC3)cc2)cn1 | COLO 205 | gene expression, microarray, item: PRKCE mRNA | concentration not given, 2 h | baseline: untreated cells | log2 fold change | 1.46
COc1cnc2cccc(N3CCc4c(cc(Cn5ccnc5C)cc4-c4cn(C)nc4C(F)(F)F)C3=O)c2c1 | SU-DHL-5 | cell growth, inhibitor | 120 h | – | EC50 | 0.0173 µM
CC/C(=N\NC(=O)NCc1cccc(O)c1)c1ccc(O)c(C)c1O | SK-OV-3 | Western blot | 5 µM, 1 h, 3D gellan gum culture, unit not given | baseline: DMSO | LATS band intensity | 0.35 ± 0.24
O=C(/C=C/C=C/C=C/C1CCCCC1)NC1=C[C@@](O)(/C=C/C=C/C=C/C(=O)NC2=C(O)CCC2=O)[C@@H]2O[C@@H]2C1=O | HCC95 | cell growth, CellTiter-Glo | 78 h | – | GI50 | 22 µM
COc1ccc2c(c1)c(C1=C(c3c[nH]c4ccccc34)C(=O)NC1=O)cn2CCCN(C)C | HeLa expressing Ub(G76V)-GFP | Ub(G76V)-GFP degradation, inhibitor, cycloheximide chase | 12 µM | – | inhibition | 23%
COc1cc(/C=C/C(=O)N2CCC=CC2=O)cc(OC)c1OC | MDA-MB-468 | quantitative RT-PCR, item: NDUFA6 | 30 µM, 8 h | baseline: untreated cells | mRNA level | 84 ± 22.1%
